Published values gathered from unrelated publications.
Compare with care: the assays were run in different laboratories. Values joined by “and” are separate records of one study, mostly repeats; a detail may differ.
Cell line: Hs-578T

CCCN1CCN(c2ccc3[nH]c(-c4ccc5[nH]c(-c6cc(OC)c(OC)c(OC)c6)nc5c4)nc3c2)CC1  growth percent (SRB; 10 µM, 48 h): 54.1%
O=C(Nc1nnc2n3c(Cc4ccccc4)n[nH]c3nc(-c3ccc(Cl)cc3)c1-2)c1ccccc1  cell growth (SRB; 10 µM, NCI60 single-dose screen; baseline: untreated): 97.5%
Cn1cncc1C1=CN(c2ncnc3[nH]cnc23)CCS1  TGI: 29.5 µM
O=C(Nc1nnc2[nH]c(=S)[nH]c(-c3ccc(Cl)cc3)c1-2)c1ccccc1  cell growth (SRB; 10 µM, NCI60 single-dose screen; baseline: untreated): 96.4%
CCCCN1CCN(c2ccc3[nH]c(-c4ccc5[nH]c(-c6ccc(C(F)(F)F)cc6)nc5c4)nc3c2)CC1  growth percent (SRB; 10 µM, 48 h): -64.3%
NNc1nc(-c2ccc(Cl)cc2)c2c(NC(=O)c3ccccc3)nnc-2[nH]1  cell growth (SRB; 10 µM, NCI60 single-dose screen; baseline: untreated): 95.9%
CCCN1CCN(c2ccc3[nH]c(-c4ccc5[nH]c(-c6ccc(OCC)c(OCC)c6)nc5c4)nc3c2)CC1  growth percent (SRB; 10 µM, 48 h): -37.2%
C#C[C@@]1(O)[C@@H](CO)O[C@@H](n2ccc3c(N)ncnc32)[C@@H]1O  TGI (SRB; NCI-60 screen): > 100 µM
O=C(Cc1ccccc1)Nc1nnc(CCSCCc2nnc(NC(=O)Cc3ccccc3)s2)s1  EC50 (cell proliferation, inhibitor, cell counting; 144 h): 3.7 µM
C#C[C@@]1(O)[C@@H](CO)O[C@@H](n2cc(Br)c3c(N)ncnc32)[C@@H]1O  TGI (SRB; NCI-60 screen): 52.4 µM and > 100 µM
Cc1n[nH]c2nc(-c3ccc(Cl)cc3)c3c(NC(=O)c4ccccc4)nnc-3n12  cell growth (SRB; 10 µM, NCI60 single-dose screen; baseline: untreated): 101%
O=C1NC(=NCc2cccs2)S/C1=C\c1ccc2ncccc2c1  IC50 (MTS; NCI60 panel): 5.83 µM

For quick reference, copied from above:
O=C(Nc1nnc2n3c(Cc4ccccc4)n[nH]c3nc(-c3ccc(Cl)cc3)c1-2)c1ccccc1  cell growth (SRB; 10 µM, NCI60 single-dose screen; baseline: untreated): 97.5%
